Published values of several laboratories.
Numbers after ± are the reported error.
Cell line: SH-SY5Y

| SMILES | read-out | method | item | time | setting | added | IC50 |
| --- | --- | --- | --- | --- | --- | --- | --- |
| CCCCCCCC(=O)Oc1c(C)c(OC)c2c(c1C)OC(=O)[C@@H](CCCCCC)[C@]2(O)/C=C/c1ccccc1 (racemic) | cell growth or viability | SRB |  | 72 h |  |  | 20.9 µM |
| Cc1cc(NC(=O)c2cccc(-n3cc(NC(=O)Nc4ccc(Cl)cc4)cn3)c2)ccn1 |  | in-cell Western | phospho-c-Jun |  | pretreatment 1 h | 35 µM 6-OHDA | 3.44 ± 2.22 µM |
| CC(/C=C/c1ccc(OCC(=O)Nc2ccc(F)cc2)cc1)=N/O | cell growth or viability | MTT |  |  |  |  | 122 µM |
| Cc1c(C)c(C)[c-](C)c1C.O=C1c2cccc[n+]2[Ir]([Cl])[N]1CCCCCCCCCC[P+](c1ccccc1)(c1ccccc1)c1ccc2ccc3cccc4ccc1c2c34.[Br-] | cell growth or viability | SRB |  | 24 h |  |  | 27 µM |
| CN(C)C(CNC(=O)Nc1cc(C(F)(F)F)ccc1N1CCOCC1)c1ccncc1 (centres unmarked) | cell growth or viability | LDH |  |  |  |  | 200 µM |
| Cc1c(C)c(C)[c-](C)c1C.O=C1c2cccc[n+]2[Ir]([Cl])[N]1CCCCCCCCCC[P+](c1ccccc1)(c1ccccc1)c1ccccc1.[Br-] | cell growth or viability | SRB |  | 24 h |  |  | 17 µM |
| Cc1cc(NC(=O)c2cccc(-n3cc(NC(=O)Nc4ccccc4Cl)cn3)c2)ccn1 | mitochondrial depolarization |  |  |  | pretreatment 1 h | 35 µM 6-OHDA, 4 h | 0.026 ± 0.019 µM |
| COc1c(C)c(O)c(C(=O)C=Cc2ccccc2)c(OC)c1C | cell growth or viability | SRB |  | 72 h |  |  | 7.52 µM |
| Cc1ccc(NC(=O)Nc2cnn(-c3cccc(C(=O)Nc4ccnc(C)c4)c3)c2)cc1 | mitochondrial depolarization |  |  |  | pretreatment 1 h | 35 µM 6-OHDA, 4 h | 0.042 ± 0.031 µM |
| Cc1c(C)c(C)[c-](C)c1C.O=C([N-]c1ccccc1)c1ccccn1.[Cl-].[Ir+3] | cell growth or viability | SRB |  | 24 h |  |  | 35 µM |
| Cc1cc(NC(=O)c2cccc(-n3cc(NC(=O)Nc4ccccc4)cn3)c2)ccn1 | mitochondrial depolarization |  |  |  | pretreatment 1 h | 35 µM 6-OHDA, 4 h | 0.025 ± 0.01 µM |
| COc1c(C)c(OS(=O)(=O)c2ccccc2)c(C)c(O)c1C(=O)/C=C/c1ccccc1 | cell growth or viability | SRB |  | 72 h |  |  | 20.4 µM |
| CCn1cc(/C=C/c2sc3ccccc3[n+]2CC)c2ccccc21 | cell growth or viability | MTT |  | 24 h |  |  | 2.2 µM |
| COc1cc(/C=C/C(C)=NO)ccc1OCC(=O)Nc1ccccc1Cl (stereo in doubt) | cell growth or viability | MTT |  |  |  |  | 49.7 µM |

Some of these lines once more:
| SMILES | read-out | method | item | time | setting | added | IC50 |
| --- | --- | --- | --- | --- | --- | --- | --- |
| COc1c(C)c(O)c(C(=O)C=Cc2ccccc2)c(OC)c1C | cell growth or viability | SRB |  | 72 h |  |  | 7.52 µM |
| Cc1ccc(NC(=O)Nc2cnn(-c3cccc(C(=O)Nc4ccnc(C)c4)c3)c2)cc1 | mitochondrial depolarization |  |  |  | pretreatment 1 h | 35 µM 6-OHDA, 4 h | 0.042 ± 0.031 µM |
